Measurements of several laboratories.
Each numbered part is a random draw from the data of one study; scales do not carry over between parts. Substitutions count along the parent as printed.

Series 1 — technique: protein-binding microarray; form: double-stranded DNA, one strand shown; matrix: in vitro; concentration: 2200 nM top; notes: 60-bp whole probe; together with: salmon DNA 0.4 mg/ml; reference: random background probes; direction: higher = stronger binding; shared flanks, not repeated: GCCTAGCAC … GTCTTGATTCGCTTGACGCTGCTG
Target: Interferon regulatory factor 7, full length, phosphomimetic (IRF7, Homo sapiens, UniProt Q92985, residues 1-503, S471D/S472D/S475D/S476D/S477D/S483D/S484D/S487D)
Target sequence (chain): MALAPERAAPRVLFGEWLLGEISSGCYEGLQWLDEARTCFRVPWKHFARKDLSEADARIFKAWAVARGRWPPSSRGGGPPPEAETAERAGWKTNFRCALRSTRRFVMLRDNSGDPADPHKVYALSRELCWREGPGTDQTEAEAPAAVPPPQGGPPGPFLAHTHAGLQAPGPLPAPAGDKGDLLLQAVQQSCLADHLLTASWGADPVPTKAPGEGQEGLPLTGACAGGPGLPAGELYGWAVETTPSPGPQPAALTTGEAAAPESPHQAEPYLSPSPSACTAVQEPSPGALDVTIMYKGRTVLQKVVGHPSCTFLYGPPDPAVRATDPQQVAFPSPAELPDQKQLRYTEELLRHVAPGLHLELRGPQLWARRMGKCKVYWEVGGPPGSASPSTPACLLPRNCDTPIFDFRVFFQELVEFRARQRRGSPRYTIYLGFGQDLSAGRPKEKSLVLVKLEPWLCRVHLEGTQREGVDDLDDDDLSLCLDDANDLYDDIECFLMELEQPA
`TCACTTCTATAGGCTAGAACTGTGCTA`: “fitted relative affinity” 0.779 z-score.
For `GACGAACAGGGGTTTCGAGACGTGCTA`, “fitted relative affinity” read 1.41 z-score.
`GACGGTTTCCGTTTCCTGACGTGCTAG` — result for “fitted relative affinity”: 6.9 z-score.
`GACGGTTTCGACATTGGGGACGTGCTA`: “fitted relative affinity” 3.84 z-score.
For `CACTATTTAAGAACTATGCACGTGCTA`, “fitted relative affinity” read 0.162 z-score.
`CACTCTCTGCTTGTATCTGGGTGCTAG`: “fitted relative affinity” 2.07 z-score.
`GACGGTTCCGGTTTCGTGACGTGCTAG` — result for “fitted relative affinity”: 4.47 z-score.
For `GACGGTATCGGGTATCGGGGCGTGCTA`, “fitted relative affinity” read -0.102 z-score.
Under “fitted relative affinity”, `TTCACTTTAACTTATTCTCTAGTGCTA` is recorded as 1.17 z-score.
Under “fitted relative affinity”, `CTGCATTTTTTTTTTCTACTGTGCTAG` is recorded as 1.56 z-score.
`GACGGTTTCGACTCTGGGGACGTGCTA`: “fitted relative affinity” 5.19 z-score.
For `TTAGATATCAGACTAGATTAGTGCTAG`, “fitted relative affinity” read -0.553 z-score.
Under “fitted relative affinity”, `TTAGGTCTCGGTACCGGTTAGTGCTAG` is recorded as 0.122 z-score.
For `GACAATTCCAGTTTCGAGACGTGCTAG`, “fitted relative affinity” read 4.16 z-score.
For `GACGAACTGAGTTTCGAAACGTGCTAG`, “fitted relative affinity” read 2.32 z-score.
`TCATAATTCTCTTTTCAACTGTGCTAG` — result for “fitted relative affinity”: 1.12 z-score.
For `TTAGGACTGGGTATTGGTTAGTGCTAG`, “fitted relative affinity” read -0.33 z-score.
Under “fitted relative affinity”, `GACGATTGCGGGACTGGAGACGTGCTA` is recorded as -0.21 z-score.
`GACGGTTTCGATTTTCGGGACGTGCTA`: “fitted relative affinity” 10.1 z-score.

Series 2 — target: CCND1, cyclin fold, Cln2 fusion (human); technique: yeast growth competition, sequencing; matrix: yeast; notes: weak parent motif; reference: not given; direction: higher = stronger binding
Starting sequence: DBF4 docking peptide (human); DDIVSKLVFDFVE
Under “normalised enrichment score”, `DDAVSKLVFDFVE [I3A]` is recorded as 0.922.
Under “normalised enrichment score”, `DDIASKLVFDFVE [V4A]` is recorded as 0.865.
For `ADIVSKLVFDFVE [D1A]`, “normalised enrichment score” read 0.639.
Under “normalised enrichment score”, `DDIVSKAVFDFVE [L7A]` is recorded as 0.736.
`DAIVSKLVFDFVE [D2A]` — result for “normalised enrichment score”: 1.1.
`DDIVSKLAFDFVE [V8A]`: “normalised enrichment score” 0.911.
`DDIVSKLVFDFVA [E13A]` — result for “normalised enrichment score”: 1.1.

Series 3 — technique: DHFR PCA, deep sequencing; matrix: yeast; together with: (+)-ABA 4.8 µM; reference: wild-type fitted maximum; direction: higher = stronger binding
Target: ABI1, truncated, D143A, DHFR fusion (Arabidopsis thaliana)
Notes: methotrexate growth selection, single substitutions
Starting sequence: PYL1, truncated, DHFR fusion (Arabidopsis thaliana); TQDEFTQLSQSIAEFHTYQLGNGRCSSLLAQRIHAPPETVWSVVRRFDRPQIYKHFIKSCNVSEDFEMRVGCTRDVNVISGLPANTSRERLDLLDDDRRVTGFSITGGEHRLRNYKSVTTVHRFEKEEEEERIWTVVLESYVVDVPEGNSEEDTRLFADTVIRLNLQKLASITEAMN; partner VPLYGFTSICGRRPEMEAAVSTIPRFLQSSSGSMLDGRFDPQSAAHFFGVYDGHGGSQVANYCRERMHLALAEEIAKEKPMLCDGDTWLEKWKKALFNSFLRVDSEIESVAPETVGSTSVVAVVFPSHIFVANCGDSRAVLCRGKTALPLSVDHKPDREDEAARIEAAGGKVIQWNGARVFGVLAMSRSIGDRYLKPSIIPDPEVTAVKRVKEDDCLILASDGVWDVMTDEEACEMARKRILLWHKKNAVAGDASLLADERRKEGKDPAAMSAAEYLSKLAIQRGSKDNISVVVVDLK
For `R111M`, “relative binding score” read 25.4%.
`E64Y` — result for “relative binding score”: 47.3%.
`V161I`: “relative binding score” 110%.
`T154V`: “relative binding score” 81.2%.
`F66R` — result for “relative binding score”: 45%.
`S59R` — result for “relative binding score”: 40.2%.
`T86W`: “relative binding score” 92.5%.
Under “relative binding score”, `D159Y` is recorded as 1.71%.
`T6I`: “relative binding score” 66.2%.
`V43S`: “relative binding score” -8.38%.
`V100N`: “relative binding score” -13%.
`R99I` — result for “relative binding score”: 7.04%.
`D97F`: “relative binding score” 45.8%.
`L28F`: “relative binding score” 35.4%.
For `D92C`, “relative binding score” read -7.71%.
For `R69H`, “relative binding score” read 64.5%.
For `E89S`, “relative binding score” read 2.22%.

Other studies, line by line
The fold induction of `PhoQ, residues 284 288 289 292 302 303 SACGEM` is reported as 6.21 (PhoP, residues 12 14 15 18 19 IQFRS (Escherichia coli, UniProt P23836); Sort-seq, measured: YFP reporter; E. coli; PhoQ-PhoP variant library, together with: 10 µM Mg2+; reference: high Mg2+ state, higher = stronger signaling).

Some of these lines once more (series 1):
Under “fitted relative affinity”, `TTAGGTCTCGGTACCGGTTAGTGCTAG` is recorded as 0.122 z-score.
For `GACAATTCCAGTTTCGAGACGTGCTAG`, “fitted relative affinity” read 4.16 z-score.
For `GACGAACTGAGTTTCGAAACGTGCTAG`, “fitted relative affinity” read 2.32 z-score.
`TCATAATTCTCTTTTCAACTGTGCTAG` — result for “fitted relative affinity”: 1.12 z-score.
For `TTAGGACTGGGTATTGGTTAGTGCTAG`, “fitted relative affinity” read -0.33 z-score.
